{"data": "Experimental data collected from several papers", "note": "Each numbered part is a random draw from the data of one study; scales do not carry over between parts. Changes are numbered by the printed parent chain."}
{"data": "Series 1", "target": "CCNB2, cyclin fold, Cln2 fusion (human)", "technique": "yeast growth competition, sequencing", "sample": "yeast", "notes": "strong parent motif", "reference": "not given", "reading": "higher = stronger binding", "starting sequence": "PKMYT1 docking peptide (human); SFEPRNLLSLFED; partner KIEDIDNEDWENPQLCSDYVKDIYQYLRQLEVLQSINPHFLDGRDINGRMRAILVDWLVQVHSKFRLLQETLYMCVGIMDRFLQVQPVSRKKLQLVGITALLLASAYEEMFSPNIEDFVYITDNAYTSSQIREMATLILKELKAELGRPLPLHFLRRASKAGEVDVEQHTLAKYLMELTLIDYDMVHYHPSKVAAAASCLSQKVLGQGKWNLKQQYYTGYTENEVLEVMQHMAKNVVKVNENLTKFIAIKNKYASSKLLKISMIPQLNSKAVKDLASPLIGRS"}
{"Variant": "N6I", "normalised enrichment score": -0.157}
{"Variant": "D13P", "normalised enrichment score": 0.616}
{"Variant": "F2T", "normalised enrichment score": 0.572}
{"Variant": "P4H", "normalised enrichment score": -0.696}
{"Variant": "F11G", "normalised enrichment score": -0.364}
{"Variant": "N6F", "normalised enrichment score": -0.316}
{"Variant": "E12Q", "normalised enrichment score": 0.305}
{"Variant": "L10Y", "normalised enrichment score": 0.726}
{"Variant": "N6V", "normalised enrichment score": -0.364}
{"Variant": "L8W", "normalised enrichment score": 0.06}
{"Variant": "D13G", "normalised enrichment score": 0.81}
{"Variant": "S1M", "normalised enrichment score": 1.81}
{"Variant": "E3H", "normalised enrichment score": 1.23}
{"data": "Series 2", "target": "Sal-like protein 4, full length isoform A (SALL4, Homo sapiens, UniProt Q9UJQ4, residues 1-1053)", "technique": "universal PBM", "form": "double-stranded DNA, one strand shown", "sample": "in vitro", "tested at": "600 nM", "notes": "8-mer, flanks averaged, mean of replicates", "reading": "higher = stronger binding", "sequence of UniProt Q9UJQ4 (whole entry, looked up)": "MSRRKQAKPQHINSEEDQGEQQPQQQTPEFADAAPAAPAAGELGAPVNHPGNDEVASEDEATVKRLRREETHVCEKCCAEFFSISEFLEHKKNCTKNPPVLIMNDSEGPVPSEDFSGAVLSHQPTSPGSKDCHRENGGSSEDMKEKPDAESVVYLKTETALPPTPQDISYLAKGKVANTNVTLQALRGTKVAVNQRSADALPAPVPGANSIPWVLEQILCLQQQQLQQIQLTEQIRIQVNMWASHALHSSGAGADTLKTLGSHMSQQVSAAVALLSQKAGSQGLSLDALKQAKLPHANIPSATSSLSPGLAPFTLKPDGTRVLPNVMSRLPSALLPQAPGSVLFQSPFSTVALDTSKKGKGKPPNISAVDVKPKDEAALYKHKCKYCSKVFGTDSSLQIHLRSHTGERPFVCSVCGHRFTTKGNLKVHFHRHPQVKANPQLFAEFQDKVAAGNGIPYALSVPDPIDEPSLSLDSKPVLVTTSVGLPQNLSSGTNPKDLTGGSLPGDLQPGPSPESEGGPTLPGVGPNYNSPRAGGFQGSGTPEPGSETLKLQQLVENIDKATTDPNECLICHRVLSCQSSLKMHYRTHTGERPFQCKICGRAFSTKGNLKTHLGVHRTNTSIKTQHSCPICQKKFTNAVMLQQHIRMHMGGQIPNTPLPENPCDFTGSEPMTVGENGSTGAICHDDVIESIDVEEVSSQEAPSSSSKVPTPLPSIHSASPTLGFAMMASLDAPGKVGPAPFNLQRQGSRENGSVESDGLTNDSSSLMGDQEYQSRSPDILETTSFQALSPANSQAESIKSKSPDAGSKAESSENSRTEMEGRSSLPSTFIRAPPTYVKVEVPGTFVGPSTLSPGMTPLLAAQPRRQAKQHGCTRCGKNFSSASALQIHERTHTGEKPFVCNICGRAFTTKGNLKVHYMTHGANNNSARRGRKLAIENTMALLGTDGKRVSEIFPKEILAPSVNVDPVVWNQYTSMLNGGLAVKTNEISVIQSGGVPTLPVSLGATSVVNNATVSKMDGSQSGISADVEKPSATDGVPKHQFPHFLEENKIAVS"}
{"Strand": "AATAGCCC", "E-score": -0.0483}
{"Strand": "ATATTTGG", "E-score": 0.344}
{"Strand": "CTGCTCCC", "E-score": -0.291}
{"Strand": "ACTCTTCC", "E-score": -0.00655}
{"Strand": "GAGAGCGA", "E-score": -0.219}
{"Strand": "AGCGACTA", "E-score": 0.0133}
{"Strand": "CTGGCATC", "E-score": -0.207}
{"Strand": "AGAAAGTC", "E-score": 0.0346}
{"Strand": "ACCTAACC", "E-score": -0.0982}
{"Strand": "ATGTTTCG", "E-score": 0.0978}
{"Strand": "GCGATATA", "E-score": 0.159}
{"Strand": "CCAACCCC", "E-score": -0.127}
{"Strand": "AAAGGGAC", "E-score": -0.135}
{"Strand": "GACCAATC", "E-score": -0.0385}
{"Strand": "ACATGCCC", "E-score": -0.117}
{"Strand": "ACGTTCGA", "E-score": 0.0306}
{"Strand": "GCTTCACC", "E-score": -0.164}
{"data": "Series 3", "target": "CREB3L1, bZIP domain (human)", "technique": "DHFR protein complementation", "sample": "yeast", "notes": "single substitutions, most at no-binding floor", "reference": "wild-type JUN-FOS pair", "reading": "higher = stronger binding", "starting sequence": "JUN, bZIP domain (human); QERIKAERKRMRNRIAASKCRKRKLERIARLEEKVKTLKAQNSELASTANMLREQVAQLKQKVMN; partner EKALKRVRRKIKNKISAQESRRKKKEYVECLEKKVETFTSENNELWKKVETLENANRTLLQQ"}
{"Variant": "Q41L", "binding fitness": "-1.49 natural log"}
{"Variant": "R30G", "binding fitness": "-1.26 natural log"}
{"Variant": "K36A", "binding fitness": "-1.21 natural log"}
{"Variant": "M51I", "binding fitness": "-1.49 natural log"}
{"Variant": "V35W", "binding fitness": "-1.44 natural log"}
{"Variant": "A57Y", "binding fitness": "-1.56 natural log"}
{"Variant": "K39Q", "binding fitness": "-1.45 natural log"}
{"Variant": "A57S", "binding fitness": "-1.52 natural log"}
{"Variant": "A29F", "binding fitness": "-1.47 natural log"}
{"Variant": "E33D", "binding fitness": "-1.43 natural log"}
{"Variant": "Q41M", "binding fitness": "-1.29 natural log"}
{"Variant": "R53M", "binding fitness": "-1.44 natural log"}
{"data": "Mixed results"}
{"Molecule": "PhoQ, residues 284 288 289 292 302 303 TYGVAM", "target": "PhoP, residues 12 14 15 18 19 SQCLL (Escherichia coli, UniProt P23836)", "assay": "Sort-seq, refers to: YFP reporter", "test system": "E. coli", "setting": "PhoQ-PhoP variant library, added: 10 µM Mg2+", "scale": "reference: high Mg2+ state, higher = stronger signaling", "endpoint": "fold induction", "value": 16.7}
{"note": "For quick reference, copied from above (series 1):"}
{"Variant": "F11G", "normalised enrichment score": -0.364}
{"Variant": "L10Y", "normalised enrichment score": 0.726}
{"Variant": "N6F", "normalised enrichment score": -0.316}
{"Variant": "P4H", "normalised enrichment score": -0.696}
{"Variant": "E3H", "normalised enrichment score": 1.23}
{"Variant": "N6I", "normalised enrichment score": -0.157}
{"Variant": "D13G", "normalised enrichment score": 0.81}
